Measured values collected from several papers.
Values joined by “and” are separate records of one study, mostly repeats; a detail may differ. ± marks the error that the study gave.

| SMILES | assay | test system | setting | Cmax |
| --- | --- | --- | --- | --- |
| Cc1ccccc1-c1cc(N2CCNCC2)ncc1N(C)C(=O)C(C)(C)c1cc(C(F)(F)F)cc(C(F)(F)F)c1 | – | healthy volunteers, plasma | oral, dose not given, netupitant-palonosetron fixed-dose combination | 44.1 ng/mL |
| CONC(=O)/C=C/c1cccc(S(=O)(=O)Nc2ccccc2)c1 | – | patients with mild liver dysfunction, plasma | intravenous, 400 mg/m^2 belinostat, single 30 min infusion, cycle 1 day -7, mean | 2990 ng/mL |
| Cn1cnc2ccc(Nc3c(F)ccc(NS(=O)(=O)N4CC(F)C4)c3Cl)c(Cl)c2c1=O | phase 1 trial | human, plasma | 50 mg once daily, cycle 1 day 15 | 1900 ng/mL and 1780 ng/mL and 1360 ng/mL |
| NC(=O)/C=C/c1cccc(S(=O)(=O)Nc2ccccc2)c1 | – | patients with mild liver dysfunction, plasma | intravenous, 400 mg/m^2 belinostat, single 30 min infusion, cycle 1 day -7, mean | 1790 ng/mL |
| COc1cc(C)c(Cc2ccc(O)cc2)cc1[C@@H]1S[C@H](CO)[C@@H](O)[C@H](O)[C@H]1O | – | Japanese T2DM patients, plasma | 0.5 mg luseogliflozin, day 7, once daily | 1.3 ± 0.196 ng/mL |
| CC(C)(Sc1cc[n+]([O-])cc1-c1ccc(C#N)c2ccccc12)C(=O)OC1OC(C(=O)O)C(O)C(O)C1O (centres unmarked) | – | plasma | oral, 15 mg, severe renal impairment, fasted | 87.2 ng/mL |
| CN1CCN(c2cc(-c3ccccc3CO)c(N(C)C(=O)C(C)(C)c3cc(C(F)(F)F)cc(C(F)(F)F)c3)cn2)CC1 | – | healthy volunteers, plasma | oral, dose not given | 60.1 to 81.8 ng/mL |
| NC(=O)c1cnc2[nH]ccc2c1NC1C2CC3CC1CC(OS(=O)(=O)O)(C3)C2 (centres unmarked) | – | Japanese adults, mild hepatic impairment, plasma | oral, 150 mg single dose | 809 ng/mL |
| CN1CC[C@@H](NC(=O)Nc2ccc(C#N)cc2)C[C@@H]1c1nc2ccccc2[nH]1 | refers to: total compound | severe hepatic impairment, plasma | oral, 100 mg single dose, fasted, arithmetic mean | 612 ng/mL |
| NC(=O)C1(NC(=O)[C@H](Cc2ccccc2)NC(=O)[C@@H](Cc2c[nH]c3ccccc23)NC(=O)[C@@H](Cc2csc3ccccc23)NC(=O)C2CCNCC2)CCNCC1 | – | healthy male volunteers, plasma | subcutaneous, 100 µg single dose | ~4 ng/mL |
| CC(C)(Sc1ccncc1-c1ccc(C#N)c2ccccc12)C(=O)OC1OC(C(=O)O)C(O)C(O)C1O (centres unmarked) | – | plasma | oral, 15 mg, severe renal impairment, fasted | 91 ng/mL |
| CC(C)[C@H](NC(=O)CNC(=O)[C@H](CCC(N)=O)NC(=O)[C@H](C)N)C(=O)O | – | healthy volunteers, LPS endotoxaemia, plasma | intravenous, 15 mg/kg/h, 2 h infusion, geometric mean, with: LPS 2 ng/kg | 1980 ng/mL |
| O=C(O)/C=C/c1cccc(S(=O)(=O)Nc2ccccc2)c1 | – | patients with mild liver dysfunction, plasma | intravenous, 400 mg/m^2 belinostat, single 30 min infusion, cycle 1 day -7, mean | 1800 ng/mL |
| Cn1cc(C(N)=O)c(NC2C3CC4CC2CC(OS(=O)(=O)O)(C4)C3)c2ccnc1-2 (centres unmarked) | – | Japanese adults, normal hepatic function, plasma | oral, 150 mg single dose | 44.8 ng/mL |
| Cc1ccccc1-c1cc(N2CC[N+](C)([O-])CC2)ncc1N(C)C(=O)C(C)(C)c1cc(C(F)(F)F)cc(C(F)(F)F)c1 | – | healthy volunteers, plasma | oral, dose not given, netupitant-palonosetron fixed-dose combination | 166 ng/mL |
| CC[C@@H](C)[C@H]1NC(=O)[C@@H]([C@H](C)O)NC(=O)[C@@H](Cc2c[nH]cn2)NC(=O)CNC(=O)[C@@H](CCCNC(=N)N)NC(=O)CNC(=O)[C@@H](Cc2ccccc2)NC1=O | – | rabbit, retina-choroid | ocular, 0.5% eye drop | 52 µg/g protein |
| CCCC[C@H](NC(=O)[C@H](CC(C)C)N(C)C(=O)CNC(=O)[C@@H](NC(=O)[C@H](Cc1ccccc1)NC(=O)[C@H](CCCCN)NC(=O)[C@@H](N)CC(=O)O)C(C)C)C(N)=O | – | Göttingen minipig, plasma | subcutaneous, 100 µg/kg | 123 ng/mL |
| Cn1cc(C(N)=O)c(NC2C3CC4CC2CC(O)(C4)C3)c2ccnc1-2 (centres unmarked) | – | Japanese adults, normal hepatic function, plasma | oral, 150 mg single dose | 35.6 ng/mL |
| O=C(O)c1cccc(S(=O)(=O)Nc2ccccc2)c1 | – | patients with mild liver dysfunction, plasma | intravenous, 400 mg/m^2 belinostat, single 30 min infusion, cycle 1 day -7, mean | 2350 ng/mL |
| CC(=O)N[C@H](CC(=O)O)C(=O)N[C@H](Cc1c[nH]c2ccccc12)C(=O)N[C@H](Cc1ccccc1)C(=O)N[C@H](CCCCN)C(=O)N[C@H](C)C(=O)N[C@H](Cc1ccccc1)C(=O)N[C@H](Cc1ccc(O)cc1)C(=O)N[C@H](CC(=O)O)C(=O)N[C@H](CCCCN)C(=O)N[C@@H](C(=O)N[C@H](C)C(=O)N[C@H](CCC(=O)O)C(=O)N[C@H](CCCCN)C(=O)N[C@H](Cc1ccccc1)C(=O)N[C@H](CCCCN)C(=O)N[C@H](CCC(=O)O)C(=O)N[C@H](C)C(=O)N[C@H](Cc1ccccc1)C(N)=O)C(C)C | – | statin-treated high-risk CHD men, plasma | oral, 300 mg daily, day 13, 0 to 8 h, mean, undetectable set to 0 | 5.38 ng/mL |

A few entries again:
| SMILES | assay | test system | setting | Cmax |
| --- | --- | --- | --- | --- |
| CN1CCN(c2cc(-c3ccccc3CO)c(N(C)C(=O)C(C)(C)c3cc(C(F)(F)F)cc(C(F)(F)F)c3)cn2)CC1 | – | healthy volunteers, plasma | oral, dose not given | 60.1 to 81.8 ng/mL |
| Cc1ccccc1-c1cc(N2CCNCC2)ncc1N(C)C(=O)C(C)(C)c1cc(C(F)(F)F)cc(C(F)(F)F)c1 | – | healthy volunteers, plasma | oral, dose not given, netupitant-palonosetron fixed-dose combination | 44.1 ng/mL |
| CC(C)(Sc1cc[n+]([O-])cc1-c1ccc(C#N)c2ccccc12)C(=O)OC1OC(C(=O)O)C(O)C(O)C1O (centres unmarked) | – | plasma | oral, 15 mg, severe renal impairment, fasted | 87.2 ng/mL |
